Measured values of several laboratories.
Parts stem from different laboratories: compare values within a part only. Positions count from the first letter of the parent shown.
Sequence of UniProt Q9UM73 (whole entry, unmodified, looked up): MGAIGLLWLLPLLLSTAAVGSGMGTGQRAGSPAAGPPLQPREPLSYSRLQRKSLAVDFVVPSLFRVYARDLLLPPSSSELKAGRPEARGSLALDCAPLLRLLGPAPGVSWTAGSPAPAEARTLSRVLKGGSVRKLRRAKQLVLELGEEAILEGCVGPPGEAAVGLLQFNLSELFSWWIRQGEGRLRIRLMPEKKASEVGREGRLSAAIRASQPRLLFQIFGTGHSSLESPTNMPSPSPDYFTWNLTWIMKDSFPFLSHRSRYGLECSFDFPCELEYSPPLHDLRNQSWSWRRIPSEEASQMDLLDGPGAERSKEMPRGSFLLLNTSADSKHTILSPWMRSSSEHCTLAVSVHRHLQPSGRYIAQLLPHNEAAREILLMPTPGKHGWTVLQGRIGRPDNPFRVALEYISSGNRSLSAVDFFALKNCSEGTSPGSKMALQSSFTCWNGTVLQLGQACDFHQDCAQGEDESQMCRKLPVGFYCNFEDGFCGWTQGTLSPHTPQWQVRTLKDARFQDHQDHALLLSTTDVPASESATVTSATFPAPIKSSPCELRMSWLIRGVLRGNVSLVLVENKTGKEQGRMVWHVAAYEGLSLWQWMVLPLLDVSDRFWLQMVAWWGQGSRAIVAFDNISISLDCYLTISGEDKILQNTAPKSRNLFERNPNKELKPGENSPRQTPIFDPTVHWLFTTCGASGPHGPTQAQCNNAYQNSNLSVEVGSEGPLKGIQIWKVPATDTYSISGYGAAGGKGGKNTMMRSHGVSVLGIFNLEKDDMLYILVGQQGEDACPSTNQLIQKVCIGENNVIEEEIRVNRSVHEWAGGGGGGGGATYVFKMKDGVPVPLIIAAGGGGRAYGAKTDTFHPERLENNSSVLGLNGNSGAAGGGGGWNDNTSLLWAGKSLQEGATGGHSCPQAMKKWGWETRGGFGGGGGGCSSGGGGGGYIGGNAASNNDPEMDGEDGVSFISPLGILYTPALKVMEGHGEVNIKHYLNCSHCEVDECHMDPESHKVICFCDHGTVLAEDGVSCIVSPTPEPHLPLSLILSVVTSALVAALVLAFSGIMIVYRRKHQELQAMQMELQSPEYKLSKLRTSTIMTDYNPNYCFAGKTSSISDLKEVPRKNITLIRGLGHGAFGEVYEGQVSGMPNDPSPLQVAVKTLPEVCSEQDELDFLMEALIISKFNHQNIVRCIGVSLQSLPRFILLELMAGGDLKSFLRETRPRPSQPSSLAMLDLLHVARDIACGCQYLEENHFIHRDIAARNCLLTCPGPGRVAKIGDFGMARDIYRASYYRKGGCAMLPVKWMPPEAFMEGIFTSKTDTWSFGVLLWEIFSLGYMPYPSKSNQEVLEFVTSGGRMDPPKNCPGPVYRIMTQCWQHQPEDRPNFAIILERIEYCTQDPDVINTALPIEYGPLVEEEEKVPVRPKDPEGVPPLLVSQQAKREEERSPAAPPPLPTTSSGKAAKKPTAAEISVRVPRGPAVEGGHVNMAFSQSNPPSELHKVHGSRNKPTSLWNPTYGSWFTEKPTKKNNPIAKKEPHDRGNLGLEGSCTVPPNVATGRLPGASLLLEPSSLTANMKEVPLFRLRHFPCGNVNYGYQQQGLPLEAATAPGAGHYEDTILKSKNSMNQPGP
Sequence of UniProt P54760 (whole entry, looked up): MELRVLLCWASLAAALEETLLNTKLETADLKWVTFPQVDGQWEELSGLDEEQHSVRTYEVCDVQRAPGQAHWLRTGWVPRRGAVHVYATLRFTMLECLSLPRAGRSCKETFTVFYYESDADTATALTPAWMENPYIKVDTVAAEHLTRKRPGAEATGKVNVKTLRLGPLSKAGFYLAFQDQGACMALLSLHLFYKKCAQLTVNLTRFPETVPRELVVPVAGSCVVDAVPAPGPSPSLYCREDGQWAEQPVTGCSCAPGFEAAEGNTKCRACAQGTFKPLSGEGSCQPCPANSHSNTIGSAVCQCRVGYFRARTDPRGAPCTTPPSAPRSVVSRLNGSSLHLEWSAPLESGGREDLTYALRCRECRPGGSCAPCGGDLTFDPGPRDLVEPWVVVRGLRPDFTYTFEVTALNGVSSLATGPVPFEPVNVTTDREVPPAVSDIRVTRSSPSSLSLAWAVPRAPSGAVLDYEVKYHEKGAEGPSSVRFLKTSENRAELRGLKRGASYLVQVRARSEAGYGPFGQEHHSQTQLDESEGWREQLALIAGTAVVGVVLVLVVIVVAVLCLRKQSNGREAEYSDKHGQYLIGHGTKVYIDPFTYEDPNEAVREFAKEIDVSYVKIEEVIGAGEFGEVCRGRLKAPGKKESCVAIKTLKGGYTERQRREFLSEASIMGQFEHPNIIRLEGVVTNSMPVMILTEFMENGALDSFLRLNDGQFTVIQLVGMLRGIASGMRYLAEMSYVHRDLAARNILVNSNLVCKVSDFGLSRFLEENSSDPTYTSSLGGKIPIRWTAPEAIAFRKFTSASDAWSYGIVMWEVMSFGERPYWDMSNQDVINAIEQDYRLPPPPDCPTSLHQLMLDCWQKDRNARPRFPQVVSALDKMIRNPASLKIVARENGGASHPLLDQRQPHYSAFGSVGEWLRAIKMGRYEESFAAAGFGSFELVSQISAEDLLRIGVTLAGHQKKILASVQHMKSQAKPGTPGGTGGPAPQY
Sequence of UniProt P53671 (whole entry, looked up): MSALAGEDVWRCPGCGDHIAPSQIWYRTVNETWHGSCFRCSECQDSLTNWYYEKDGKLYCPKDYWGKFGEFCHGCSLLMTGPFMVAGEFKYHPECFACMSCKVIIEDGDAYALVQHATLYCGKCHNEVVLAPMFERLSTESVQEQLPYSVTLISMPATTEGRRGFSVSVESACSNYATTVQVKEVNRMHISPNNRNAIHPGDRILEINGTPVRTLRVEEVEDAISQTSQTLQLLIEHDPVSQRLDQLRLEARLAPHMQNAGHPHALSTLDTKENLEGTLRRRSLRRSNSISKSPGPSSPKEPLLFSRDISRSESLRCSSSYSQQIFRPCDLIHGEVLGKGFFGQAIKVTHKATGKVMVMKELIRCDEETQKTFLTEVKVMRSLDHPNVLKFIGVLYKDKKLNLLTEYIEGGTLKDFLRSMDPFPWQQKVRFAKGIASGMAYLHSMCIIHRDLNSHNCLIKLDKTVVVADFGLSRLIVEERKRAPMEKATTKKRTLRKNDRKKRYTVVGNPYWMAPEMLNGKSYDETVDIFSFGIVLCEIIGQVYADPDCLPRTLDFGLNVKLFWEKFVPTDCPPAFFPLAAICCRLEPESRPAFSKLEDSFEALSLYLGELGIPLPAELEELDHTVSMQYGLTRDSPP
Sequence of UniProt P0C1S8 (whole entry, looked up): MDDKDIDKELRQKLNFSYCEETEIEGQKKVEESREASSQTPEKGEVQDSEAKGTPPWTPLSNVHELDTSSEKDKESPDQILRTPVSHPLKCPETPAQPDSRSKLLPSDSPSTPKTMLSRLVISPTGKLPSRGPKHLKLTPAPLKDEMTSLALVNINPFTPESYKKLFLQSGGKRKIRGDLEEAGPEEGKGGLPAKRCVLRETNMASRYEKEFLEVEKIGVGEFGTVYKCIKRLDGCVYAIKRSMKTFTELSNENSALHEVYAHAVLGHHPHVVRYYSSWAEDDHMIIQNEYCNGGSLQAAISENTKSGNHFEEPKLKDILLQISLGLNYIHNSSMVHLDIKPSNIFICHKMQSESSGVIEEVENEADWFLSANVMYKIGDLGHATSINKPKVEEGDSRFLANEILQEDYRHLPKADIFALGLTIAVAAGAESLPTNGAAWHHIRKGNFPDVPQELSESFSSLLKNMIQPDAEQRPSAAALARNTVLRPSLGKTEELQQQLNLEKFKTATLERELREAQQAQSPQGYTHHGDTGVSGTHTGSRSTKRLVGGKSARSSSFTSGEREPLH
Sequence of UniProt P51451 (whole entry, looked up): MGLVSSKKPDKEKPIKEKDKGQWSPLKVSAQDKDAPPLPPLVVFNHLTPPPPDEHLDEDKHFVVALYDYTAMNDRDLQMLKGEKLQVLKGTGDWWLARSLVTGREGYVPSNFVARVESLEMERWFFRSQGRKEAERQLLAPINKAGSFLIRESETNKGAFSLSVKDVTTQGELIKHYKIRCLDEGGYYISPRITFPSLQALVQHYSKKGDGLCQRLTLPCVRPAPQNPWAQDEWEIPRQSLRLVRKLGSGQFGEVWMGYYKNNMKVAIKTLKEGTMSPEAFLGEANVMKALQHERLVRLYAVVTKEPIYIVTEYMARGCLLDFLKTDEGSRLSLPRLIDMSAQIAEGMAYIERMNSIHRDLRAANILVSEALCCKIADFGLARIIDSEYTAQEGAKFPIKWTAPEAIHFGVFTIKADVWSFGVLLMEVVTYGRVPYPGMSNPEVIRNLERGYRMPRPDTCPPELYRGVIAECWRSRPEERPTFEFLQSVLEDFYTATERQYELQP
Sequence of UniProt Q9H4B4 (whole entry, looked up): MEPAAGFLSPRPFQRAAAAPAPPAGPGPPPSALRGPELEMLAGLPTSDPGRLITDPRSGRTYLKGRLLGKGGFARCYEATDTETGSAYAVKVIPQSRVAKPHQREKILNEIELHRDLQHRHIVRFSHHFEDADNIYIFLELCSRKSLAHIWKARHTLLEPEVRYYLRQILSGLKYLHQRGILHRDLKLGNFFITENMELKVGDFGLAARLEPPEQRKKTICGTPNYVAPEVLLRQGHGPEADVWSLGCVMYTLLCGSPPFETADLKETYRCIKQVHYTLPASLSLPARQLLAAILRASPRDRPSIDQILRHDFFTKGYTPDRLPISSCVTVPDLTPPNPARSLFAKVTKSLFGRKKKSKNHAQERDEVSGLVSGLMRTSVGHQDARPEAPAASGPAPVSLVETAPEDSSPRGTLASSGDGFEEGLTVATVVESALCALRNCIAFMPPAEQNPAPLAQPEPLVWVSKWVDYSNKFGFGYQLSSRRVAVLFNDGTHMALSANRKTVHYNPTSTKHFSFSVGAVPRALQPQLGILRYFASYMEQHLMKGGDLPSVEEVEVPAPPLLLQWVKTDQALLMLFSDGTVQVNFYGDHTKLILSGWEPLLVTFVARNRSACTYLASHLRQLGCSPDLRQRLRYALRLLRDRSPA

Study 1 — effect on: cell-free assay; method: competition with immobilised ligand; tested at: 0.1 µM; measurement: remaining binding
SMILES: Cc1c[nH]c2nccc(Oc3c(F)cc(Nc4cc(Cl)nc(N)n4)cc3F)c12
target = LIM domain kinase 2 (LIMK2, Homo sapiens, UniProt P53671); value = 79%
target = DSTYK (Homo sapiens, UniProt Q6XUX3); value = 67%
target = WEE2 (Homo sapiens, UniProt P0C1S8); value = 91%
target = SRPK3 (Homo sapiens, UniProt Q9UPE1); value = 100%
target = PLK3 (Homo sapiens, UniProt Q9H4B4); value = 83%
target = MAP3K10 (Homo sapiens, UniProt Q02779); value = 100%
target = SBK3 (Homo sapiens, UniProt P0C264); value = 87%
target = PRKG2 (Homo sapiens, UniProt Q13237); value = 90%
target = CAMK2D (Homo sapiens, UniProt Q13557); value = 90%
target = ALK (Homo sapiens, UniProt Q9UM73, L1196M); value = 99%
target = MYLK2 (Homo sapiens, UniProt Q9H1R3); value = 98%
target = ALK (Homo sapiens, UniProt Q9UM73, C1156Y); value = 100%
target = ROCK2 (Homo sapiens, UniProt O75116); value = 0.9%

Study 2 — method: RNA Bind-n-Seq; form: RNA; matrix: in vitro; tested at: 20 nM; setting: 6-mer, flanks averaged, single round; together with: 150 mM KCl; reference: input library; reading: higher = stronger binding; measurement: 6-mer enrichment (R)
Target: TAR DNA-binding protein 43, full length, His tag (TARDBP, Homo sapiens, UniProt Q13148, residues 1-414)
Strand = CUUAGC; value = 0.601
Strand = GCGCUU; value = 0.787
Strand = ACCAAG; value = 0.77
Strand = UUCUGA; value = 0.575
Strand = CCCUCU; value = 0.619
Strand = AUACCC; value = 0.621
Strand = UCCAAC; value = 0.589
Strand = CGCCUC; value = 0.627

Study 3 — Change: F157P; method: DHFR PCA, deep sequencing; matrix: yeast; reference: wild-type fitted maximum; reading: higher = stronger binding; measurement: relative binding score
Target: ABI1, truncated, D143A, DHFR fusion (Arabidopsis thaliana)
Setting: methotrexate growth selection, single substitutions
Starting sequence: PYL1, truncated, DHFR fusion (Arabidopsis thaliana); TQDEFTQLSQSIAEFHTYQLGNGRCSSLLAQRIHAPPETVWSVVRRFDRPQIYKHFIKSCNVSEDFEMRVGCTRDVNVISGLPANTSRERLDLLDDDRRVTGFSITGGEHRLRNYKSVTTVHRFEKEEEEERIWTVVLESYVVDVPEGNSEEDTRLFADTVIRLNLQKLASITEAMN
conditions = together with: (+)-ABA 710 µM; value = -10.9%
conditions = together with: (+)-ABA 200 µM; value = -0.441%
conditions = together with: (+)-ABA 17 µM; value = -2.97%
conditions = together with: (+)-ABA 1.4 µM; value = 17.3%
conditions = together with: (+)-ABA 0.11 µM; value = 2.28%
conditions = together with: (+)-ABA 0 µM; value = 1.99%

Study 4 — effect on: enzyme activity; action: inhibitor; tested at: 0.5 µM; reference: control; measurement: remaining activity
Compound: Cc1ccc(NC(=O)c2ccc(CN3CCN(C)CC3)cc2)cc1Nc1nccc(-c2cccnc2)n1
target = BLK (Homo sapiens, UniProt P51451); value = 89%
target = EPHB4 (Homo sapiens, UniProt P54760); value = 95.1%
target = SRMS (Homo sapiens, UniProt Q9H3Y6); value = 100%
target = PHKG1 (Homo sapiens, UniProt Q16816); value = 93.4%
target = STK17A (Homo sapiens, UniProt Q9UEE5); value = 92.4%
target = EPHA4 (Homo sapiens, UniProt P54764); value = 108%
target = HIPK2 (Homo sapiens, UniProt Q9H2X6); value = 104%
target = Cyclin-dependent kinase 6, with cyclin D3 (CDK6, Homo sapiens, UniProt Q00534); value = 103%
target = AXL (Homo sapiens, UniProt P30530); value = 90.5%
target = RPS6KA6 (Homo sapiens, UniProt Q9UK32); value = 101%
target = HIPK4 (Homo sapiens, UniProt Q8NE63); value = 99.5%

Some of these lines once more (study 4):
target = HIPK4 (Homo sapiens, UniProt Q8NE63); value = 99.5%
target = Cyclin-dependent kinase 6, with cyclin D3 (CDK6, Homo sapiens, UniProt Q00534); value = 103%
target = PHKG1 (Homo sapiens, UniProt Q16816); value = 93.4%
